Results pooled from the literature.
Each numbered part is a random draw from the data of one study; scales do not carry over between parts. Substitutions count along the parent as printed.

Series 1
Target: XBP1, bZIP domain (human)
Technique: DHFR protein complementation
Medium: yeast
Notes: single substitutions, most at no-binding floor
Relative to: wild-type JUN-FOS pair
Reading: higher = stronger binding
Measurement: binding fitness
Starting sequence: JUN, bZIP domain (human); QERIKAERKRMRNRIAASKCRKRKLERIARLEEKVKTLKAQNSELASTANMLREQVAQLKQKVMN; partner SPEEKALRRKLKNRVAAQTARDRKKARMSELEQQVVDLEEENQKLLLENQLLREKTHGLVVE
A46C: -1.11 natural log
Q55L: -0.554 natural log
L59R: -0.749 natural log
L52V: -1.36 natural log
E44C: -1.31 natural log
T48S: -0.738 natural log
K39E: -1.18 natural log
K34L: -1.05 natural log
R30Y: -0.241 natural log
T37V: -0.655 natural log
L52R: -1.42 natural log
L38R: -1.37 natural log
E33L: -1.01 natural log
A40M: -0.764 natural log
L45V: -1.56 natural log
R53Q: -1.2 natural log
L59H: -0.553 natural log

Series 2
Target: Histone acetyltransferase KAT6A, winged helix 2, GST fusion (KAT6A, Homo sapiens, UniProt Q92794, residues 85-181)
Technique: protein binding microarray
Molecule type: double-stranded DNA, one strand shown
Medium: in vitro
Tested at: not given
Notes: 8-mer, flanks averaged, mean of 2 arrays, mostly near background
Relative to: not given
Reading: higher = stronger binding
Measurement: E-score
Residues (chain): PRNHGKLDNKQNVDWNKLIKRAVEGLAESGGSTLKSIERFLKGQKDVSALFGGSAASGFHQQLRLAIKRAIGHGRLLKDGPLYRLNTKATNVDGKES
ATTCCACA: 0.0458
GGGATCAC: -0.127
TGGACGAA: -0.00924
ATTATATG: 0.0481
AGCAACGG: 0.059
AGAACTGG: 0.0892
GTATTTCA: -0.0148
AAAAGAGA: 0.0243
CCAAAACG: 0.0625
CCATGATC: -0.2
CTTTGTAC: -0.0968
AACATGTG: -0.234
CACCGCGC: 0.208
AGTAATCG: 0.0414
CTTGAATC: 0.0346
CTAAAGGC: 0.0711
CAGGGATG: 0.0602
TCAGCAGA: 0.137
ACAGGCCC: -0.129
CGTCCTTC: -0.00886
GAGCGGCC: 0.0814
ACGCAGAG: 0.208

Series 3
Target: RNA binding protein fox-1 homolog 2, RRM domain, GST-SBP tag (RBFOX2, Homo sapiens, UniProt O43251-10, residues 100-194)
Technique: RNA Bind-n-Seq
Molecule type: RNA
Medium: in vitro
Tested at: 365 nM
Notes: natural RNA segment, single round, ends assumed
Relative to: no-protein control
Reading: higher = stronger binding
Measurement: RBNS enrichment (R)
Residues (chain): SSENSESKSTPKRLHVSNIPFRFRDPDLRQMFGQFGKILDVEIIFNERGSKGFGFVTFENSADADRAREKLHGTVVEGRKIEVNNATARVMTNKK
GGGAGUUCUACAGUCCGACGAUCUGCCAGAGAACAAGGUGUAUGUUCUUGGGAAGCAGGUCUAUGCCAGUGGGCUGUUUUGCCUUGUUUGUGCUUCUUCAGGACAGAGCAGUCCUGAUGAUACAGUAAUUGAUUGGAAUUCUCGGGUGCCAA: 4.88
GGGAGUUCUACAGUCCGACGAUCGUUAGGGCAACAAUGAAGGAGGACCCAGCCAAGCUAGAAGGAAUUUUGUGGAUGGGAGACAGCAGGAUUAGCUUCAGCUUGGGCUGGAGCAGUCAAUAUAGGAUCUCAGGUGGAAUUCUCGGGUGCCAA: 0.394
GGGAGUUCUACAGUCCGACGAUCUUUGUGGUUUCCUCUAUUUUGAAUUUUUUGAUCAAAAAACUGAUUAGCAGAAUAUAGUUUGGAGUUUGGCUUCAUCUUCCUGGGGUUCCCCUCACUCCCUUUUUUGUCAAUGGAAUUCUCGGGUGCCAA: 0.998
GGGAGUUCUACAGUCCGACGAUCCAGUGCUGCUCACGAGAGCCCAGCCAGUCUCAUGCCUGCAUUGCUGACUUGAACUCACAGUCGCCAAGUCUACCUAUCUUUCUUGGAAGCAGUCUUUCAAAAUUCCUACUUGGAAUUCUCGGGUGCCAA: 0.316
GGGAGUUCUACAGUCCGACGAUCAGUGCUUUUUCUUUUCUUCUGUUCAAAGAGGUCAUAUUACAAGGUUUUUUGAAAUUGUGAAUUCUAAAAAACAAAAAACAAACAAAAAAAUGUUGUAAAUAUAAUUCCAUUGGAAUUCUCGGGUGCCAA: 1.02
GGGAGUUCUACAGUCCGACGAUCUAAAUCCGCCAGGUCACGUGCAGACAAAGCUGUGGCUGCGAGAGUUGGCUGGCCUCUUGGACCAGAAGCCAUCUCCAUAUCCUCAUGAGCGAUUCCAUAUCUCCACUCAGUGGAAUUCUCGGGUGCCAA: 0.266
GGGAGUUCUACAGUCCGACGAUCUUCACCGUGCGUGGACACUGCUAGGCCGCCUGGGGUCCCCUGCCUCCUGCCUGUCGCUGCCGUGGUCCCUGACUGCGAAAUAGGCCCGCGGGGCUCUCCCUCCUCCUGCCUGGAAUUCUCGGGUGCCAA: 0.287
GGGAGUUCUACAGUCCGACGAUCAGGGGAAGGCUACAUUUCUAUGGGUAUAGAAAUGGGAAUAUUUGCGAGCCUAUCUCAGAUGUACAUUAAUAGACCUCACUGCCUUCCGGGUGAAGGUGUGUUGUCCUACAUGGAAUUCUCGGGUGCCAA: 0.784
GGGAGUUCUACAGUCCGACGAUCGUUUUUCAAUAUAUGAACUUUUGUAUGGAAUUUUUUUGUAAUAAGUGAUCAAGGUUACAAAUUUUUUUUUUAAAUAGAAAAGAGAAGAAAAACGUUGUAAGAAGGCAAUAUGGAAUUCUCGGGUGCCAA: 0.887
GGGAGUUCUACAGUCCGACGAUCGAAGCUGCCCGUUGCUGCUACUGCACCUCACCACCAACUCCCUCAUGGACAGACAGAUCCCUGAUGUCUGUCACUAUAGACACACGUGUUGUACAUGUGGCCCUUAACACUGGAAUUCUCGGGUGCCAA: 0.487
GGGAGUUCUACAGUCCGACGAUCGGCCCCACCGCCAUCGUCAGUCAAAUCAGUGCACCUCUCAAUCUGCCUCGCAGUGACUUCGCAGCACUGAGUGGCAUCCACCAGGAAUCAGGCUGGAGAAAUGGGAGCCCUGGAAUUCUCGGGUGCCAA: 0.256
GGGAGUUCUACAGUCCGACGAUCUCUGUUUGAGUAAACUAAGACUGACAGGGGAAUCGGGGUGCUCACAAGCGAGUCCCUCCAGCUGCUUUAGGAGCCGCUGUGUUCCUGCUGUGUCUUACAGGACUGGAGUGUGGAAUUCUCGGGUGCCAA: 0.306

Series 4
Target: ABI1, truncated, D143A, DHFR fusion (Arabidopsis thaliana)
Technique: DHFR PCA, deep sequencing
Medium: yeast
Notes: methotrexate growth selection, single substitutions
Added: (+)-ABA 0.11 µM
Relative to: wild-type fitted maximum
Reading: higher = stronger binding
Measurement: relative binding score
Starting sequence: PYL1, truncated, DHFR fusion (Arabidopsis thaliana); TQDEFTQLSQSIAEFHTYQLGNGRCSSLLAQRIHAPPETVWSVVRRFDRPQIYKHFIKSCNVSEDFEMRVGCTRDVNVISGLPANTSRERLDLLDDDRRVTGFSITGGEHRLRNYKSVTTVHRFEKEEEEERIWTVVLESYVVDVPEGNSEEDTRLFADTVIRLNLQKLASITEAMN
F47H: -2.58%
E174V: 6.02%
Y53E: 0.827%
R90L: 0.283%
T39I: 53.3%
L164I: 6.23%
E38G: 1.8%
N177I: 27.7%
R98S: -6.94%
R113H: 29%
R132P: 48.6%
V118R: 49.1%
R98D: -7.8%
G102V: 0.0113%
L93C: 11%
S11C: 34.6%
N61H: 48.1%
L169P: 5.45%
T160W: 0.0468%
R123F: -8.44%
L94Q: -15.5%

Series 5
Target: Fragile X messenger ribonucleoprotein 1, C-terminal low-complexity region (Fmr1, Mus musculus, UniProt P35922)
Technique: RNA Bind-n-Seq
Molecule type: RNA
Medium: in vitro
Tested at: 200 nM
Notes: whole 134-nt RNA, ends assumed
Added: 150 mM KCl
Relative to: input library
Reading: higher = stronger binding
Measurement: log2 enrichment
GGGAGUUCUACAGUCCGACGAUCUAACUUUCGAGGAGGAUCUGAUGGAUAUGGCAGUGGACGUGGAUUUGGGGAUGGCUAUAAUGGGUAUGGAGGAGGACCUGGAGGUGGCAAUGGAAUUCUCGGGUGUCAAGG: 0.364
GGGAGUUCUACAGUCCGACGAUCUCAAUGCCGGCUAUGCCCUGGCCCCAGCCACCAGUGCCAACGACAGCGAGCAGCAGAGCCUGUCCAGCGAUGCAGACACCCUGUCCCUCAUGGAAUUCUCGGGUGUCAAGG: 0.291
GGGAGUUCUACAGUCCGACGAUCGCAGGAAGUAAAAACAAAUGGAAAUGCUUCGGAUAGUGGCAGGGAUGGGGGUUGCUAAGGAAAGGGUGGGAUGGGAGUGGGUAAAGAGUUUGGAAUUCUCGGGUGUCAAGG: 0.155
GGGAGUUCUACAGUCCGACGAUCAGUCCUGUGCUACACAUCGUAUGUACCGAAUCGGGGUUUGGGGAAAGGGGAAAGGGGAAAGUAUUAUGUUACGCCGUUCGGAUCUGCACUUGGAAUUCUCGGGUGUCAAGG: 0.679
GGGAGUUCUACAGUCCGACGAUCCAAGUCCUGUGCUACACAUCGUAUGUACCGAAUCGGGAGGGUUUUUGGGAAAGGGAAAGUAUUAUGUUACGCCGUUCGGAUCUGCACUUCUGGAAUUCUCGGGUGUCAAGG: 0.658
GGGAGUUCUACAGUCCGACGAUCCACAGACAACACGCACCCACACAGACACAGAGGGAAGGGGUUGGGAUGGGGACAGGGUGCACAGCAGGGCGGGGAAAGACCCCAGCCCCUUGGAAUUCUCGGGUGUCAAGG: 1.26
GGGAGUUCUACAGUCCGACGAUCAGUCCUGUGCUACACAUCGUAUGUACCGAAUCGGGUUUUUGGUUUUUGGGUUUUUGGGAAAGUAUUAUGUUACGCCGUUCGGAUCUGCACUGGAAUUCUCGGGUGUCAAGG: -0.471
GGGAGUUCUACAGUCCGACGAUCCUGUGCUACACAUCGUAUGUACCGAAUCGGGGAAAAAAAGGAAAAAAAGGAAAAAAAGGGGAAAGUAUUAUGUUACGCCGUUCGGAUCUGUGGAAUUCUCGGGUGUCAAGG: -0.892
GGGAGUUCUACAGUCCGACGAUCCUCAAGUCCUGUGCUACACAUCGUAUGUACCGAAUCGGAAGGAAGGGGAAGGGAAAGUAUUAUGUUACGCCGUUCGGAUCUGCACUUCCAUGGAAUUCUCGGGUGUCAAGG: -0.0798
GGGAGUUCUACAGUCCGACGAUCCCUCAAGUCCUGUGCUACACAUCGUAUGUACCGAAUCGGGGAGGAGGGAGGGGAAAGUAUUAUGUUACGCCGUUCGGAUCUGCACUUCCAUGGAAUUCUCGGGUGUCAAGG: 1.25
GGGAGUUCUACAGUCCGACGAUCAGUCCUGUGCUACACAUCGUAUGUACCGAAUCGGGUUUUGGUUUUGGGGUUUUGGGGAAAGUAUUAUGUUACGCCGUUCGGAUCUGCACUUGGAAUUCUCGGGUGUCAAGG: 0.357
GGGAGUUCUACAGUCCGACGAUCAAGUCCUGUGCUACACAUCGUAUGUACCGAAUCGGUUUGGAAAAAAAGGUUUUUGGAAAGUAUUAUGUUACGCCGUUCGGAUCUGCACUUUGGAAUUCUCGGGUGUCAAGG: -1.03
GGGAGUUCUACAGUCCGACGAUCAAGUCCUGUGCUACACAUCGUAUGUACCGAAUCGGCCCCCGGCCCCCGGCCCCCGGGAAAGUAUUAUGUUACGCCGUUCGGAUCUGCACUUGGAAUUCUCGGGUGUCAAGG: -0.246
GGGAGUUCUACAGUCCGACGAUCGUCCUGUGCUACACAUCGUAUGUACCGAAUCGGGUUUUUGGGGUUUUUGGUUUUUGGGGAAAGUAUUAUGUUACGCCGUUCGGAUCUGCAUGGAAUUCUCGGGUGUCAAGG: -0.0579
